Published values pooled from the literature.
Numbered parts are unrelated; each lists some results of a single study. Values joined by “and” are separate records of one study, mostly repeats; a detail may differ.
Sequence of UniProt Q12866 (whole entry, looked up): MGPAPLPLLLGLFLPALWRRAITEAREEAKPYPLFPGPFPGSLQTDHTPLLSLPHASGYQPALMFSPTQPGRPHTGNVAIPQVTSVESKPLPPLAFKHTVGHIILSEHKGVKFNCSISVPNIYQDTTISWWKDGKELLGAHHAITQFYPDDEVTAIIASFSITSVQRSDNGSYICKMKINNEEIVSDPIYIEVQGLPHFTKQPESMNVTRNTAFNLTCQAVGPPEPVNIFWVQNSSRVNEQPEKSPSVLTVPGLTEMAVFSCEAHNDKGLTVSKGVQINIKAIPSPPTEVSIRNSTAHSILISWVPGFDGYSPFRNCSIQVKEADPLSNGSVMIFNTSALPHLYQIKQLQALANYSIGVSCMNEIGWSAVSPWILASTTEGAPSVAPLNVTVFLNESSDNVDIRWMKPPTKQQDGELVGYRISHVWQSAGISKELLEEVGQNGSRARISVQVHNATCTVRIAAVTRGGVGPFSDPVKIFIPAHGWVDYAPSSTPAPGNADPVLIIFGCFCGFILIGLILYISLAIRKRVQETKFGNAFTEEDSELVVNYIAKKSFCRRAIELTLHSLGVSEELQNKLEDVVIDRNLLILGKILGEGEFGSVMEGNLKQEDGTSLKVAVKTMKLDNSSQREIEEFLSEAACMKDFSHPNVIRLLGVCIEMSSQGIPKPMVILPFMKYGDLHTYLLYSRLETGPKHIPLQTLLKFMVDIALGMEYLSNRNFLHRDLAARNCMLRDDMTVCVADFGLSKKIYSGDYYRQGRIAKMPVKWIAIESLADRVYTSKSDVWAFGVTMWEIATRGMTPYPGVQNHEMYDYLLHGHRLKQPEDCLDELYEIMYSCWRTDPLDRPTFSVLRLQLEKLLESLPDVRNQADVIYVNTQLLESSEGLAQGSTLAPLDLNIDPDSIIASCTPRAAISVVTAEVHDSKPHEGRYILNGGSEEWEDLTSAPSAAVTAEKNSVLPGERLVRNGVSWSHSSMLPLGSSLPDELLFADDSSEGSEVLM
Sequence of UniProt O96013 (whole entry, looked up): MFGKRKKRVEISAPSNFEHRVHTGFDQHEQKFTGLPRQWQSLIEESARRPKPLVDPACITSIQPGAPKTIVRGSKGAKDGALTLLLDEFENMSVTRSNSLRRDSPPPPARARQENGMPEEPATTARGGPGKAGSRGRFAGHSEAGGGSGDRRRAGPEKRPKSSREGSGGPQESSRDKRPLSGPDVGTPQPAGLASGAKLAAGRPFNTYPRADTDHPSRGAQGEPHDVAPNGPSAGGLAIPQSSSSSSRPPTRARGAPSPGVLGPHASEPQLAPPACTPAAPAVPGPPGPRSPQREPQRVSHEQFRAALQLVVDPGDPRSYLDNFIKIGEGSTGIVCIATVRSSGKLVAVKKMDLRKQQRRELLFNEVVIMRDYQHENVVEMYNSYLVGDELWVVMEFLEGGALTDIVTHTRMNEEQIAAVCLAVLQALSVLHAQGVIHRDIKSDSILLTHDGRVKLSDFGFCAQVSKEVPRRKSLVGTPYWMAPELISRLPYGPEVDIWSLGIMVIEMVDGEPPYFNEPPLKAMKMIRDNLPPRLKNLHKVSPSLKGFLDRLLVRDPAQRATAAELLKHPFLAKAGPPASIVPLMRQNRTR
Sequence of UniProt P57058 (whole entry, looked up): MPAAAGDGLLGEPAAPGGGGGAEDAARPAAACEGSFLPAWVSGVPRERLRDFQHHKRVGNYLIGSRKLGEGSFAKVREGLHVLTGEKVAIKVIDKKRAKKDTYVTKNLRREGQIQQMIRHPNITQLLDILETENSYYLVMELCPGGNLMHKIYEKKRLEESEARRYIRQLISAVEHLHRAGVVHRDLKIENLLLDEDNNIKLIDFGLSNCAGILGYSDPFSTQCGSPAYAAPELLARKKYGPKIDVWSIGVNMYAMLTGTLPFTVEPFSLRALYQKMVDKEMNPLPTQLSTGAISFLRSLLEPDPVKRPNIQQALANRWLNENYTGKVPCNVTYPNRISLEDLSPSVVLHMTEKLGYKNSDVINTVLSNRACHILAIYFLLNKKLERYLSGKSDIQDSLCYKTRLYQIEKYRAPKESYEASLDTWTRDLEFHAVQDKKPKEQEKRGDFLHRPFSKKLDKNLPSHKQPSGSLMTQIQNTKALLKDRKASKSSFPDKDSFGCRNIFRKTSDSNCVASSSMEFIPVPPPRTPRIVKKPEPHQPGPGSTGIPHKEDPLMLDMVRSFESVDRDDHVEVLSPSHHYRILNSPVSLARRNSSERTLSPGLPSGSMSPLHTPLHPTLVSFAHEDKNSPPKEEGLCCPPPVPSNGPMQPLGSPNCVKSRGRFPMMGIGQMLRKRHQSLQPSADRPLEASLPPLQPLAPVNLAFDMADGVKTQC

Sample 1
Target: DNA polymerase theta, ATPase domain (POLQ, Homo sapiens, UniProt O75417)
Sequence of UniProt O75417 (whole entry, unmodified, looked up): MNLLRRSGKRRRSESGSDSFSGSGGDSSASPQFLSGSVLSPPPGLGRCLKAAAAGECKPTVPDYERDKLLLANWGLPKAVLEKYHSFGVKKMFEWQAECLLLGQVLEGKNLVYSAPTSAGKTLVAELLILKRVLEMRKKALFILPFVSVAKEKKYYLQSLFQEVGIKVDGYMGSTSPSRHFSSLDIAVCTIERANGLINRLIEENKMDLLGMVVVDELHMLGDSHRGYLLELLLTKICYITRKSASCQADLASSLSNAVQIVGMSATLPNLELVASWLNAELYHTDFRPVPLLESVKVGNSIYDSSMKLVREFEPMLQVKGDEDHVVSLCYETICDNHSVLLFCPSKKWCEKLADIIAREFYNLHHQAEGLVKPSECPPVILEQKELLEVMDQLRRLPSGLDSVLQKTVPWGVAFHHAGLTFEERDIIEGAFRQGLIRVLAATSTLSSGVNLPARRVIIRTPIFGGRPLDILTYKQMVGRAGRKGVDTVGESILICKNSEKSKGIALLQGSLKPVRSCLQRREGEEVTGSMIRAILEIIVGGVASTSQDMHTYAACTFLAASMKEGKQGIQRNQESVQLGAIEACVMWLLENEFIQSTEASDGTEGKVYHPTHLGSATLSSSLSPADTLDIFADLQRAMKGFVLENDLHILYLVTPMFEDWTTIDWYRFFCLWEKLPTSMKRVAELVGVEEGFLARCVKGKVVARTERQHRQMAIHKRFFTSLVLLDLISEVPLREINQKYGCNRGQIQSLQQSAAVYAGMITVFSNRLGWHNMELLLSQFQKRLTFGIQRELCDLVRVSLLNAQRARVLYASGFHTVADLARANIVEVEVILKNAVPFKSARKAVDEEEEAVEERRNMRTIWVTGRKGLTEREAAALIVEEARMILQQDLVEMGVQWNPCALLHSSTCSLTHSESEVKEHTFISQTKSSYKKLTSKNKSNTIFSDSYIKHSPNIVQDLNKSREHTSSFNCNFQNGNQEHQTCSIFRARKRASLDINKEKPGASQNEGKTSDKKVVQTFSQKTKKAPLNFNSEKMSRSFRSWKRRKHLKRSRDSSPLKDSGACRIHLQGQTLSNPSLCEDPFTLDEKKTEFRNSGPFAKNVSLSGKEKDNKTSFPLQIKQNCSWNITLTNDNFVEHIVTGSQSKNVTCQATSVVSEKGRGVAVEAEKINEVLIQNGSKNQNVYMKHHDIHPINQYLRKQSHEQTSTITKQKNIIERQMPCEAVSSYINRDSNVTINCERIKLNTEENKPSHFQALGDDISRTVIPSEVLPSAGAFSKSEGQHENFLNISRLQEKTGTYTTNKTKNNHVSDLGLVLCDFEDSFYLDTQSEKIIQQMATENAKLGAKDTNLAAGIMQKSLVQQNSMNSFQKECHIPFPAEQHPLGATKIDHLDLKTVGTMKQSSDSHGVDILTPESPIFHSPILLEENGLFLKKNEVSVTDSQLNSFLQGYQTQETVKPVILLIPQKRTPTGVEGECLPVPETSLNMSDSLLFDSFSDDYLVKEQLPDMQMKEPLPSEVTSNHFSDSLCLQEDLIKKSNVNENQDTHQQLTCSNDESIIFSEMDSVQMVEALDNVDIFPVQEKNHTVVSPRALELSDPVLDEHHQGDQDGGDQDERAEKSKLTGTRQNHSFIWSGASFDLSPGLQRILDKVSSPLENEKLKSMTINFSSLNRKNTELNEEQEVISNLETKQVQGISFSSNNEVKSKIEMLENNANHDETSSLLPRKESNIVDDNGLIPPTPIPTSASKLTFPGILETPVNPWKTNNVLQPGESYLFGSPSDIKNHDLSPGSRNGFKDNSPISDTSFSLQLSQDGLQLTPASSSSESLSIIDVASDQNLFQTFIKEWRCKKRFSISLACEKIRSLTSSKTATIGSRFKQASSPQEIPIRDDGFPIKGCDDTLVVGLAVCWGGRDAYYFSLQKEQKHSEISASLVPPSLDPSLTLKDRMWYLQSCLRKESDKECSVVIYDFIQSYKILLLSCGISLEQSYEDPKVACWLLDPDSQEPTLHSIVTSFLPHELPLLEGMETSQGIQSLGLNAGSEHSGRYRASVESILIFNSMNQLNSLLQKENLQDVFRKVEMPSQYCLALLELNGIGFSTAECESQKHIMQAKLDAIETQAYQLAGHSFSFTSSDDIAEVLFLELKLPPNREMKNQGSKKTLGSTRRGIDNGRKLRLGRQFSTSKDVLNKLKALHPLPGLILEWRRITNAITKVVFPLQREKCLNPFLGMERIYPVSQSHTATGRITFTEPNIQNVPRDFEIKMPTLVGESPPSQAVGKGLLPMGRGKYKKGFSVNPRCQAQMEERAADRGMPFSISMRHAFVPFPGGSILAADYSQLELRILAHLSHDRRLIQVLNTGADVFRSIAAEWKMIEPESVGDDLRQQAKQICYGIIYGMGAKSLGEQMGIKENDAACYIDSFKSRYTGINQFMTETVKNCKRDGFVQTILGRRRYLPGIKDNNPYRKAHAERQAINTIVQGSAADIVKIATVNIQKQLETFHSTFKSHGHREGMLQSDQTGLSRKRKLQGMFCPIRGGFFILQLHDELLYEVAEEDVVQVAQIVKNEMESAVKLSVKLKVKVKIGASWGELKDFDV
Effect on: enzyme activity
Action: inhibitor
Concentration: 77 µM
Reference: untreated
Quantity: remaining activity
NCCC[C@](N)(C(=O)O)C(F)F (racemic): 104%
CN1CCCCC1CCN1c2ccccc2Sc2ccc([S+](C)[O-])cc21 (stereo not drawn): 101%
Cc1cn([C@H]2C[C@H](N=[N+]=[N-])[C@@H](CO)O2)c(=O)[nH]c1=O: 106% and 103% and 85.4%
Nc1nnc(-c2cccc(Cl)c2Cl)c(N)n1: 104%
Clc1ccc2nsnc2c1NC1=NCCN1: 98.7%
CC(=O)/N=c1/sc(S(N)(=O)=O)nn1C: 102% and 99.3%
C=CC(=O)Nc1cccc(Nc2nc(Nc3ccc(N4CCN(C(C)=O)CC4)cc3OC)ncc2C(F)(F)F)c1: 103%

Sample 2
SMILES: Cc1nc(Cc2cccc(C(F)(F)F)c2)sc1-c1ccc(C(N)=O)nc1
Effect on: cell-free assay
Method: competition with immobilised ligand
Concentration: 1 µM
Quantity: remaining binding
Ribosomal protein S6 kinase alpha-1, C-terminal kinase domain (RPS6KA1, Homo sapiens, UniProt Q15418): 100%
Protein kinase C eta type (PRKCH, Homo sapiens, UniProt P24723): 83%
Atypical kinase COQ8B, mitochondrial (COQ8B, Homo sapiens, UniProt Q96D53): 100%
Cyclin-dependent kinase 3 (CDK3, Homo sapiens, UniProt Q00526): 88%
Tyrosine-protein kinase Lck (LCK, Homo sapiens, UniProt P06239): 100%
Ephrin type-A receptor 3 (EPHA3, Homo sapiens, UniProt P29320): 88%
Hormonally up-regulated neu tumor-associated kinase (HUNK, Homo sapiens, UniProt P57058): 90%
Serine/threonine-protein kinase RIO2 (RIOK2, Homo sapiens, UniProt Q9BVS4): 98%
Serine/threonine-protein kinase pim-3 (PIM3, Homo sapiens, UniProt Q86V86): 100%
Mitogen-activated protein kinase 9 (MAPK9, Homo sapiens, UniProt P45984): 100%
Receptor tyrosine-protein kinase erbB-2 (ERBB2, Homo sapiens, UniProt P04626): 100%
Serine/threonine-protein kinase MARK2 (MARK2, Homo sapiens, UniProt Q7KZI7): 69%
Serine/threonine-protein kinase PAK 4 (PAK4, Homo sapiens, UniProt O96013): 96%
Peripheral plasma membrane protein CASK (CASK, Homo sapiens, UniProt O14936): 85%
Serine/threonine-protein kinase mTOR (MTOR, Homo sapiens, UniProt P42345): 87%
Serine/threonine-protein kinase D2 (PRKD2, Homo sapiens, UniProt Q9BZL6): 76%
Calcium/calmodulin-dependent protein kinase kinase 1 (CAMKK1, Homo sapiens, UniProt Q8N5S9): 98%
Tyrosine-protein kinase ABL1, phosphorylated (ABL1, Homo sapiens, UniProt P00519, T315I): 100%
Dual specificity mitogen-activated protein kinase kinase 3 (MAP2K3, Homo sapiens, UniProt P46734): 93%
Mitogen-activated protein kinase 12 (MAPK12, Homo sapiens, UniProt P53778): 100%
Testis-specific serine/threonine-protein kinase 1 (TSSK1B, Homo sapiens, UniProt Q9BXA7): 54%
MAP/microtubule affinity-regulating kinase 3 (MARK3, Homo sapiens, UniProt P27448): 86%
Phosphatidylinositol 4,5-bisphosphate 3-kinase catalytic subunit gamma isoform (PIK3CG, Homo sapiens, UniProt P48736): 78%
NUAK family SNF1-like kinase 2 (NUAK2, Homo sapiens, UniProt Q9H093): 100%
Epidermal growth factor receptor (EGFR, Homo sapiens, UniProt P00533): 100%

Sample 3
Compound: CC#CC(=O)N1CCC[C@H]1c1nc(-c2ccc(C(=O)Nc3ccccn3)cc2)c2c(N)nccn12
Action: inhibitor
Concentration: 1 µM
Quantity: inhibition
Serine/threonine-protein kinase 32C (STK32C, Homo sapiens, UniProt Q86UX6); enzyme activity: 12%
Death-associated protein kinase 2 (DAPK2, Homo sapiens, UniProt Q9UIK4); enzyme activity: 0%
Ribosomal protein S6 kinase alpha-2, kinase domain 2 (RPS6KA2, Homo sapiens, UniProt Q15349): 0%
Ribosomal protein S6 kinase alpha-4, N-terminal kinase domain (RPS6KA4, Homo sapiens, UniProt O75676): 0%
Tyrosine-protein kinase Mer (MERTK, Homo sapiens, UniProt Q12866); enzyme activity: 0%
Macrophage-stimulating protein receptor (MST1R, Homo sapiens, UniProt Q04912); enzyme activity: 18%
SNF-related serine/threonine-protein kinase (SNRK, Homo sapiens, UniProt Q9NRH2); enzyme activity: 0%
Serine/threonine-protein kinase ULK2 (ULK2, Homo sapiens, UniProt Q8IYT8); enzyme activity: 0%

Sample 4
SMILES: CC(=O)N[C@@H](Cc1c[nH]c2ccccc12)C(=O)N[C@@H](CCC(=O)C=[N+]=[N-])C(=O)OC(C)C
Dose: dose not given
Reference: vehicle
Quantity: log2 fold change
metabolomics, item: 2,6-dihydroxybenzoic acid; mouse, EL4 tumour: -0.128
item: quinate; mouse, EL4 tumour-bearing, EL4 tumour: 2.71
item: N-acetylphenylalanine; mouse, EL4 tumour-bearing, EL4 tumour: -0.188
item: adenine; mouse, EL4 tumour-bearing, EL4 tumour: -2.52
item: N-formylmethionine; mouse, EL4 tumour-bearing, EL4 tumour: -0.782
item: argininosuccinate; mouse, EL4 tumour-bearing, EL4 tumour: -1.02
item: CMP; mouse, EL4 tumour-bearing, EL4 tumour: -0.117
item: isovalerylcarnitine; mouse, EL4 tumour, tumour: -0.454
metabolomics, item: 2,3-dihydroxyisovalerate; mouse, EL4 tumour: -0.594
item: pantoate; mouse, EL4 tumour-bearing, EL4 tumour: -0.842
item: arabitol/xylitol; mouse, EL4 tumour-bearing, EL4 tumour: 0.445
item: phenylalanine; mouse, EL4 tumour-bearing, EL4 tumour: 0.262

Sample 5
Structure (SMILES): COc1ccc2[nH]c3c4[nH]c5ccc(OC)cc5c4c4c(c3c2c1)C(=O)NC4=O
Method: competitive binding panel
Concentration: 1 µM
Reference: vehicle
Quantity: remaining binding
Mitogen-activated protein kinase kinase kinase 6 (MAP3K6, Homo sapiens, UniProt O95382); item: ASK2: 86%
Phosphatidylinositol 4,5-bisphosphate 3-kinase catalytic subunit alpha isoform (PIK3CA, Homo sapiens, UniProt P42336, I800L): 93%
Tyrosine-protein kinase Fgr (FGR, Homo sapiens, UniProt P09769): 68%
Tyrosine-protein kinase ABL1 (ABL1, Homo sapiens, UniProt P00519, F317I): 87%
Tyrosine-protein kinase Mer (MERTK, Homo sapiens, UniProt Q12866): 19%
Casein kinase I isoform delta (CSNK1D, Homo sapiens, UniProt P48730): 94%
Mast/stem cell growth factor receptor Kit (KIT, Homo sapiens, UniProt P10721, V559D/V654A): 66%
Phosphatidylinositol 4-phosphate 5-kinase type-1 gamma (PIP5K1C, Homo sapiens, UniProt O60331): 81%
